Values quoted from earlier work as cited in several papers.
± marks the error that the study gave. ≈ marks a conversion by molar mass, not a printed value.

`Cc1cccc(C)c1NC1=C(O)C(=O)c2ccccc2C1=O`: “mean survival time” 26.7 ± 2.5 days (Plasmodium berghei; infected mice; dose not given).
The MBC of `CC[C@H](C)[C@@H]1NC(=O)[C@H](CCC(N)=O)NC(=O)[C@H](CCC(=O)O)NC(=O)[C@H](CCC(=O)O)NC(=O)[C@H](CCCCN)NC(=O)[C@@H]2CCCN2C(=O)[C@H](CC(C)C)NC(=O)[C@@H](NC(=O)[C@@H](N)CO)CSSC[C@@H](C(=O)N[C@@H](CCCNC(=N)N)C(=O)N[C@@H](CCCNC(=N)N)C(=O)N[C@@H](CCCCN)C(=O)N[C@@H](CCCCN)C(=O)O)NC(=O)[C@H](CCCCN)NC(=O)[C@H](CCCNC(=N)N)NC(=O)CNC(=O)[C@H](CCCNC(=N)N)NC(=O)[C@H]([C@@H](C)O)NC(=O)[C@H](CO)NC(=O)[C@H](CCCCN)NC(=O)CNC1=O` is reported as 16 µM (≈ 41.4 µg/mL) (Escherichia coli; K-12 MG1655; pH 7.4).
`Cc1onc(-c2c(Cl)cccc2Cl)c1C(=O)Nc1ccc(F)cc1C(=O)NN=Cc1cccs1` — result for antiviral activity: “increased” (Tobacco mosaic virus; concentration not given; relative to: ningnanmycin).
With `c1ccc(-c2nc3n(c2-c2ccc4sccc4c2)CCC3)nc1` the MIC was 2 µg/mL (Staphylococcus aureus; methicillin-resistant).
`C[C@H](NC(=O)[C@H](Cc1c[nH]cn1)NC(=O)[C@H](CO)NC(=O)[C@@H](N)CC(=O)O)C(=O)N[C@@H](CCCCN)C(=O)N[C@@H](CCCNC(=N)N)C(=O)N[C@@H](Cc1c[nH]cn1)C(=O)N[C@@H](Cc1c[nH]cn1)C(=O)NCC(=O)N[C@@H](Cc1ccc(O)cc1)C(=O)N[C@@H](CCCCN)C(=O)N[C@@H](CCCNC(=N)N)C(=O)N[C@@H](CCCCN)C(=O)N[C@@H](Cc1ccccc1)C(=O)N[C@@H](Cc1c[nH]cn1)C(=O)N[C@@H](CCC(=O)O)C(=O)N[C@@H](CCCCN)C(=O)N[C@@H](Cc1c[nH]cn1)C(=O)N[C@@H](Cc1c[nH]cn1)C(=O)N[C@@H](CO)C(=O)N[C@@H](Cc1c[nH]cn1)C(=O)N[C@@H](CCCNC(=N)N)C(=O)NCC(=O)N[C@@H](Cc1ccc(O)cc1)C(=O)O` has an LD50 of 2 to 10 µM (Candida albicans).
The MIC of `CC(=O)NCC1CN(c2ccc(-c3ccc(C=CC(=O)N4CCNCC4)cc3)c(F)c2)C(=O)O1` (centres unmarked) is reported as 0.5 µg/mL (Staphylococcus aureus).
`CC[C@H](C)[C@@H]1NC(=O)[C@H](CCC(N)=O)NC(=O)[C@H](CCCCN)NC(=O)[C@H](Cc2ccc(O)cc2)NC(=O)[C@H](CCCNC(=N)N)NC(=O)[C@H](CCCNC(=N)N)NC(=O)[C@@H]2CCCN2C(=O)[C@@H](NC(=O)[C@@H](N)Cc2ccccc2)CSSC[C@@H](C(=O)N[C@@H](CCCCN)C(=O)O)NC(=O)[C@H](CCCCN)NC(=O)[C@H]([C@@H](C)O)NC(=O)CNC(=O)[C@@H]2CCCN2C(=O)[C@H](CC(C)C)NC(=O)CNC(=O)[C@H]([C@@H](C)O)NC(=O)CNC1=O` gave an MBC of 23 µM (≈ 49.5 µg/mL) (Staphylococcus aureus; ATCC 8530; pH 7.4).
With `COc1ccccc1-c1nnc(-c2ccc(C(=O)N/N=C/c3ccc(O)c(O)c3)cc2)o1` the IC50 was 950 ± 10 nM (Leishmania).
`COc1ccc(/C=C(\C)[N+](=O)[O-])cc1` gave an IC50 of 26.4 ± 2.71 nM (Leishmania donovani; parasite growth; amastigote).
With `O=C(NO)c1ccc(Cn2c3c(c4cc(F)ccc42)SC(c2ccccc2)C3)s1` (centres unmarked) the LD50 was 23.3 µM (Schistosoma mansoni; schistosomula).
The IC50 of `CC/C(=C\c1ccc(O)cc1)[N+](=O)[O-]` is reported as 55.7 ± 2.84 nM (Leishmania donovani; parasite growth; promastigote).
`CC[C@H](C)[C@H](NC(=O)[C@H](CCCNC(=N)N)NC(=O)[C@H](CCC(N)=O)NC(=O)[C@@H](NC(=O)[C@@H](NC(=O)[C@H](CCCNC(=N)N)NC(=O)[C@H](CCCCN)NC(=O)[C@@H](N)Cc1ccccc1)[C@@H](C)CC)C(C)C)C(=O)N[C@@H](CCCCN)C(=O)N[C@@H](CC(=O)O)C(=O)N[C@@H](Cc1ccccc1)C(=O)N[C@@H](CC(C)C)C(=O)N[C@@H](CCCNC(=N)N)C(=O)O` has an MIC of 40 µM (Escherichia coli).
With `CNC(=O)[C@@H]1Cc2c([nH]c3ccccc23)[C@@H](c2ccc(C)cc2Cl)N1` the IC50 was 340 ± 50 nM (Plasmodium falciparum; parasite growth; Dd2).
The IC50 of `O=c1ccn([C@@H]2O[C@H](COC(c3ccccc3)(c3ccccc3)c3ccccc3)[C@@H](OC(c3ccccc3)(c3ccccc3)c3ccccc3)[C@H]2O)c(=O)[nH]1` is reported as 1750 nM (dengue virus; viral replication).
For `CC(C)C1(CC[C@@H](C)[C@H]2[C@@H](O)CC3C4CCC5C[C@H](OS(=O)(=O)O)[C@@H](OS(=O)(=O)O)C[C@]5(C)C4CC[C@@]32CO)CC1C` (some centres unmarked), antiviral activity read “active” (HIV; viral replication; concentration not given).
With `CCCCCCCc1c(C)nc2cc(F)cc(F)c2c1OC(=O)OCCOCCOCCOCCOC` the ED50 was 11 mg/kg (Plasmodium yoelii; antimalarial activity; oral, prodrug).
`O=C(NCCNCCO)c1cn(Cc2ccccc2)c2cc(Cl)c(OCc3ccc(C(F)(F)F)cc3)cc2c1=O` has an MIC of > 32 µg/mL (Staphylococcus aureus; growth; MRSA ATCC 43300).
With `NC(=O)c1cn(Cc2ccc(F)cc2)cc(O)c1=O` the inhibition was 50% (human cytomegalovirus; viral replication; AD169 GFP reporter; 10 µM).
`CCN(CC)CC#CCNc1ccnc2cc(Cl)ccc12` gave a survival increase of > 9 days (Plasmodium berghei; mouse, infected; 640 mg/kg, single dose).
`COc1cc2ccc(-c3nc4ccccc4n3Cc3ccccc3Cl)c(OC)c2c(OC)c1OC` gave a selectivity index of 37.3 (Zika virus; African strain; relative to: CC50 over EC50).
`CCCCCCCCCCCCCCCCSSCCOP(=O)(O)CO[C@H](C)Cn1cnc2c(N)ncnc21` has a therapeutic index of 28000 (HIV-1).
Under “EC50 fold change”, `Cc1c(-c2ccc(Cc3ccc(OC(F)(F)F)cc3)cc2)[nH]c2cccc(F)c2c1=O` is recorded as 3 to 4 fold (Plasmodium falciparum; cyt b A122T; relative to: wild type).
The MIC of `CN(CCCN)[C@H](C(=O)O)[C@H](O[C@@H]1O[C@H](CN)[C@@H](O)[C@H]1O)[C@H]1O[C@@H](n2ccc(=O)[nH]c2=O)[C@H](O)[C@@H]1O` is reported as 3.13 µg/mL (Staphylococcus).

A few entries again:
`COc1cc2ccc(-c3nc4ccccc4n3Cc3ccccc3Cl)c(OC)c2c(OC)c1OC` gave a selectivity index of 37.3 (Zika virus; African strain; relative to: CC50 over EC50).
`CCCCCCCCCCCCCCCCSSCCOP(=O)(O)CO[C@H](C)Cn1cnc2c(N)ncnc21` has a therapeutic index of 28000 (HIV-1).
Under “EC50 fold change”, `Cc1c(-c2ccc(Cc3ccc(OC(F)(F)F)cc3)cc2)[nH]c2cccc(F)c2c1=O` is recorded as 3 to 4 fold (Plasmodium falciparum; cyt b A122T; relative to: wild type).
